Measurements of several laboratories.
Several values in a cell are separate wells, animals, samples, runs or records. ± gives the spread as reported.
HLA class I histocompatibility antigen, A alpha chain allele A*24:02: HLA class I histocompatibility antigen, A alpha chain, allele A*24:02 (Homo sapiens, UniProt P04439)
Slc6a2: Transporter (Slc6a2, Rattus norvegicus, UniProt Q63380)
Sequence of UniProt P35372 (whole entry, looked up): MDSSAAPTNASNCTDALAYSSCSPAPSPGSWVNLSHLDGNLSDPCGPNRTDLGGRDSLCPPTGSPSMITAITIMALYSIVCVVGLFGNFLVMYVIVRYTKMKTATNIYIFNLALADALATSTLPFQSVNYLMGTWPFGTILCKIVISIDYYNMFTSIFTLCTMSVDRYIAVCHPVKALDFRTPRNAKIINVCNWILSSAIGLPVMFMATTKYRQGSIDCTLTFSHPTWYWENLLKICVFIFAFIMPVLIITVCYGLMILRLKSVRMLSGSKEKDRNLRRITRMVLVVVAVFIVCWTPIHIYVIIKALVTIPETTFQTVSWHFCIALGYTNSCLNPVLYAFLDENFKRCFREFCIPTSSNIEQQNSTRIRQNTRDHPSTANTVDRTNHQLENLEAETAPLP
Sequence of UniProt P63096 (whole entry, looked up): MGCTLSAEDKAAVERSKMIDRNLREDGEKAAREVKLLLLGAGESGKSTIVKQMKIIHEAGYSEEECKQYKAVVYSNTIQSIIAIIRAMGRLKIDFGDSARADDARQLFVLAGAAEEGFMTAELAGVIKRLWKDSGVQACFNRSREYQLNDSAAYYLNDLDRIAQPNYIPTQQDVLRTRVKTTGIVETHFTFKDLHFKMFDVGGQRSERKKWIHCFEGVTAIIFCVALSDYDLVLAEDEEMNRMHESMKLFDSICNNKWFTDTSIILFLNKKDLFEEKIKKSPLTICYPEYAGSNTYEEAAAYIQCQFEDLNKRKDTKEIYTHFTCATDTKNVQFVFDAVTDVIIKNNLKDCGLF
Sequence of UniProt P41595 (whole entry, looked up): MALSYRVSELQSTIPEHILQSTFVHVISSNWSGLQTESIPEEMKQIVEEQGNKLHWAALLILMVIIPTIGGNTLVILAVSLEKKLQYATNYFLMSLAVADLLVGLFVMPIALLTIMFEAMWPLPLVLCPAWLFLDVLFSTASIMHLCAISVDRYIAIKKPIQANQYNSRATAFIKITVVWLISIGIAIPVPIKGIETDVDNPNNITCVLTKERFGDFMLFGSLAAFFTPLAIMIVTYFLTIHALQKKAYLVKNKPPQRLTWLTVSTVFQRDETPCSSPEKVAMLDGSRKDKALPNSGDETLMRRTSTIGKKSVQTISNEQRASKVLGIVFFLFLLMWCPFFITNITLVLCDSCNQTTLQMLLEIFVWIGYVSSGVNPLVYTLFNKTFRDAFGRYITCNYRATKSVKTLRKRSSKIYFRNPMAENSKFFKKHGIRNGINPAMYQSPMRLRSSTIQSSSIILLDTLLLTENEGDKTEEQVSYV
Sequence of UniProt Q9RBY6 (whole entry, looked up): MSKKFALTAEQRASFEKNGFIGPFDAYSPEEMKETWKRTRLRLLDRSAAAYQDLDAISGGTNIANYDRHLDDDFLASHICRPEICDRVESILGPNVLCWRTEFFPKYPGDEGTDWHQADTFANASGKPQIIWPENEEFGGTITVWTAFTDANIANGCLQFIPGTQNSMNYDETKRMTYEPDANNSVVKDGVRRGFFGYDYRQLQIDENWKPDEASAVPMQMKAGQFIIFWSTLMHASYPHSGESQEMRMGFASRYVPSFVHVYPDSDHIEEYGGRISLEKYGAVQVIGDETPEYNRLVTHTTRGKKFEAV
Sequence of UniProt P9WI57 (whole entry, looked up): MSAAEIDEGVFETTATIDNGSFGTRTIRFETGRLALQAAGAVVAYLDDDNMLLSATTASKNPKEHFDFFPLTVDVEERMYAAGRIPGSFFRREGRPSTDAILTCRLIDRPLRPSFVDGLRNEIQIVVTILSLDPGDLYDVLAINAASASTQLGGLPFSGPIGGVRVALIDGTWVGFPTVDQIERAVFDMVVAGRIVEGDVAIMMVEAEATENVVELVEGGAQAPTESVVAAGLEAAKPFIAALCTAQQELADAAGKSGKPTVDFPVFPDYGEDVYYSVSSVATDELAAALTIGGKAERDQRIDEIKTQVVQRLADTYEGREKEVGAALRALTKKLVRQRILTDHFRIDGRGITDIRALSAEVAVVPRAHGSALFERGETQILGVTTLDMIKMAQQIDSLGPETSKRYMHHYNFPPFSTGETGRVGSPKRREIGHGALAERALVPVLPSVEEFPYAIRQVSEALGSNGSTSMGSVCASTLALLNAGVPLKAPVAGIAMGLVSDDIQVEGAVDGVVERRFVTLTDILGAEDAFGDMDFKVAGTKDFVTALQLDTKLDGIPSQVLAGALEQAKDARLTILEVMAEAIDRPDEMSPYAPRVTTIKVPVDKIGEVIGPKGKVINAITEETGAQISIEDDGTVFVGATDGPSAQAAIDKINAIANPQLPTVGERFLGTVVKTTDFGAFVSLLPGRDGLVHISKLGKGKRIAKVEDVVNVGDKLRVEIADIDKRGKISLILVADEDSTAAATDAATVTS
Sequence of UniProt O75751 (whole entry, looked up): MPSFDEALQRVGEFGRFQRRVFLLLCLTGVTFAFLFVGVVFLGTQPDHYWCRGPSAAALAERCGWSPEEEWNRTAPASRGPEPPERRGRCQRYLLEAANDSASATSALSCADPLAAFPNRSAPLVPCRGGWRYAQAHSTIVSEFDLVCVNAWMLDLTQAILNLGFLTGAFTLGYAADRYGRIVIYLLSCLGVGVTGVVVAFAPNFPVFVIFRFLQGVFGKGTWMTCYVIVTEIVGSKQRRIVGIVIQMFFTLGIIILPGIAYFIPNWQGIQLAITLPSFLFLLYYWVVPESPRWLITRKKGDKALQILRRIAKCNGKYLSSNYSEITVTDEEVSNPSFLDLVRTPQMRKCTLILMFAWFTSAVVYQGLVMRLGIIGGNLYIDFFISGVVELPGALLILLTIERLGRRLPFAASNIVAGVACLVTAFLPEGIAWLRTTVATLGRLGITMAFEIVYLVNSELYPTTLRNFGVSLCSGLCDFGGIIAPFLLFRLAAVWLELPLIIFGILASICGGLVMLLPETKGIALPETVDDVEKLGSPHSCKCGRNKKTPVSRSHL
Sequence of UniProt Q2T7N4 (whole entry, looked up): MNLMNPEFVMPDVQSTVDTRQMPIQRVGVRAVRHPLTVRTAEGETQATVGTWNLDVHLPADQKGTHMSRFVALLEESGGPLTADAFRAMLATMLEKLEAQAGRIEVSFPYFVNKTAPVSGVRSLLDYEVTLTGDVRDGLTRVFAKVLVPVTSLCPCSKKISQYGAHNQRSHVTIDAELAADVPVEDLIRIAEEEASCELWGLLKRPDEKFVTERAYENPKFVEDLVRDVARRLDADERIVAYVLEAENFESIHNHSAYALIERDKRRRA
Sequence of UniProt Q96PY6 (whole entry, looked up): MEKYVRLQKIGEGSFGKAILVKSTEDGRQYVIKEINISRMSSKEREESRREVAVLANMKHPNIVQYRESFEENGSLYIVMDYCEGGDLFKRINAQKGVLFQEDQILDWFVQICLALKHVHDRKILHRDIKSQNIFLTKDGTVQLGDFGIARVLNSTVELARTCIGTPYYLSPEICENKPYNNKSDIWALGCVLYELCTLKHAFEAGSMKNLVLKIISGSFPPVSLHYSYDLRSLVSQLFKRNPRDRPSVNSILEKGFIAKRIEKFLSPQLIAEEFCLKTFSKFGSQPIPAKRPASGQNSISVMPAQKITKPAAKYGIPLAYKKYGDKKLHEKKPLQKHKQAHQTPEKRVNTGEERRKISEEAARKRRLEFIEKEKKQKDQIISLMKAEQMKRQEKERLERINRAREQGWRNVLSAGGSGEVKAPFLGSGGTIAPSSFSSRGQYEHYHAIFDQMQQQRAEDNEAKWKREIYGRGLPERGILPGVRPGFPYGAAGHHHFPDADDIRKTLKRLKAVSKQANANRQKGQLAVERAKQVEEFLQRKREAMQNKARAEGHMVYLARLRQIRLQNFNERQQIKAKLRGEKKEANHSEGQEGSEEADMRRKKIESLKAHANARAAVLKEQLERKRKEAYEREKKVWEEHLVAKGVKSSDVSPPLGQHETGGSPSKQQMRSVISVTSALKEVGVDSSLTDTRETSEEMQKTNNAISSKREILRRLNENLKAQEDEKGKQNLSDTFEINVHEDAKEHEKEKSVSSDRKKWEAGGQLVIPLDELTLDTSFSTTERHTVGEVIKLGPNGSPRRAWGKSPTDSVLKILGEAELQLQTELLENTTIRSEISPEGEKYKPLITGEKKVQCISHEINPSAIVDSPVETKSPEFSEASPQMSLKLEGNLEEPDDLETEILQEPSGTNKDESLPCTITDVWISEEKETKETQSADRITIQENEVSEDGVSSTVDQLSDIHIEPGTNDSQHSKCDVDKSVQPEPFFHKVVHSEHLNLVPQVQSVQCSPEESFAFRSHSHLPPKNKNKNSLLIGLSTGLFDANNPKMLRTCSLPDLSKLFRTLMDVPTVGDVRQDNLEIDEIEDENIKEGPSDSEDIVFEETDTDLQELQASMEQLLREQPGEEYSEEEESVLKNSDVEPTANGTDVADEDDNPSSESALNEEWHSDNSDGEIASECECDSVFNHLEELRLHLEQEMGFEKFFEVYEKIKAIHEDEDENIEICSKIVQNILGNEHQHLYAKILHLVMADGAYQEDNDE

With `CSCC[C@H](NC(=O)[C@@H](N)Cc1ccc(O)cc1)C(=O)N[C@@H](CC(=O)O)C(=O)N1CCC[C@H]1C(=O)N[C@H](C(=O)N1CCC[C@H]1C(=O)N[C@@H](CC(C)C)C(=O)N[C@@H](CCC(N)=O)C(=O)N[C@@H](Cc1ccccc1)C(=O)O)C(C)C` the IC50 was 117 nM (HLA class I histocompatibility antigen, A alpha chain allele A*24:02; binding).
For `COc1cc(C[C@@H](C)N)c(OC)cc1I`, the EC50 was 7.43 ± 2.05 nM (HTR2B (Homo sapiens, UniProt P41595); agonist).
For `CCCC(NC)C(=O)c1ccc2c(c1)OCO2` (racemic), the IC50 was 1070 ± 110 nM (Slc6a2; norepinephrine uptake, inhibitor; rat brain synaptosomes; with: [3H]norepinephrine 5 nM).
The relative abundance of `C[C@H]1CN(c2n[nH]c3nc(N[C@H]4CC[C@H](NS(=O)(=O)CCC(F)(F)F)CC4)ncc23)CCO1` is reported as 1.05 (NEK1 (Homo sapiens, UniProt Q96PY6); inhibitor, Kinobeads competition profiling; 0.16 µM; reference: vehicle).
`C=C1C(=O)O[C@H]2[C@H]1CC/C(C)=C/CC[C@@]1(C)O[C@@H]21` gave a Ki of 21900 ± 4000 nM (GTP cyclohydrolase FolE2 (folE2, Burkholderia thailandensis, UniProt Q2T7N4)).
The IC50 of `Nc1nc2c(ncn2[C@@H]2O[C@H](COP(=O)(O)OP(O)(O)=S)[C@@H](O)[C@H]2O)c(=O)[nH]1` is reported as 59.8 nM and 48.6 nM and 44.8 nM (OPRM1/GNAI1 (Homo sapiens, UniProt P35372+P63096); MOR-Gi coupling; HEK293F; ratio 1:3).
Under “log2 fold change”, `CC[C@H](C)[C@@H]1NC(=O)[C@@H]2CCCN2C(=O)[C@H](CC(C)C)NC(=O)[C@H](CC(C)C)NC(=O)CNC(=O)[C@@H](NC(=O)[C@@H](NC(=O)[C@H](CC(=O)O)NC(=O)CNC(=O)[C@@H](NC(=O)[C@H](C)NC(=O)CNC(=O)[C@H](CCCCN)NC(=O)[C@H](CC(C)C)NC(=O)[C@H](CC(C)C)NC(=O)[C@H](CCCCN)NC(=O)CNC(=O)[C@@H](NC(=O)[C@@H](N)CC(C)C)C(C)C)C(C)C)C(C)C)CSSC[C@@H](C(=O)O)NC1=O` is recorded as -1.95 (RNA-seq, item: Pstpip1; mouse, traumatic brain injury model, frontal cortex and hippocampus; dose not given; reference: TBI alone).
For `[N-]=[N+]=[N-]`, the Kd was 120000 ± 5000 nM (L-threonyl-[L-threonyl-carrier protein] 4-chlorinase (syrB2, Pseudomonas syringae pv. syringae, UniProt Q9RBY6); binding, UV-vis titration; Pseudomonas syringae; anaerobic, with: Fe(II) and alpha-ketoglutarate).
`CNC(C)Cc1ccc2c(c1)OCO2` (stereo not shown) gave an IC50 of 696000 ± 114000 nM (SLC22A3 (Homo sapiens, UniProt O75751)).
For `CNC(C)C(=O)c1ccc2c(c1)OCO2` (stereo not shown), the EC50 was 270 ± 70 nM (Slc6a2; rat).
`COc1cc(Nc2ncc(F)c(Nc3ccc4c(n3)NC(=O)C(C)(C)O4)n2)cc(OC)c1OC` has an IC50 of greater than 10000 nM (ADRA2A (Homo sapiens, UniProt P08913)).
The tissue uptake of `CC[C@H](C)[C@H](NC(=O)[C@H](Cc1ccccc1)NC(=O)[C@H](CCC(=O)O)NC(=O)[C@H](CCCNC(=N)N)NC(=O)[C@H](C)NC(=O)[C@H](C)NC(=O)[C@H](CCC(N)=O)NC(=O)[C@H](CCC(=O)O)NC(=O)[C@H](CCC(=O)O)NC(=O)[C@H](CC(C)C)NC(=O)[C@H](Cc1ccc(O)cc1)NC(=O)[C@H](CO)NC(=O)[C@H](CO)NC(=O)[C@@H](NC(=O)[C@H](CC(=O)O)NC(=O)[C@H](CO)NC(=O)[C@@H](NC(=O)[C@H](Cc1ccccc1)NC(=O)[C@@H](NC(=O)CNC(=O)[C@H](CCC(=O)O)NC(=O)[C@H](C)NC(=O)CCc1c[nH]cn1)[C@@H](C)O)[C@@H](C)O)C(C)C)C(=O)N[C@@H](C)C(=O)N[C@@H](Cc1c[nH]c2ccccc12)C(=O)N[C@@H](CC(C)C)C(=O)N[C@H](C(=O)N[C@@H](CCCNC(=N)N)C(=O)NCC(=O)N[C@@H](CCCNC(=N)N)C(=O)N[C@@H](CCCCNC(=O)COCCOCCNC(=O)COCCOCCNC(=O)CC[C@H](NC(=O)CCCCCCCCCCCCCCCCC(=O)O)C(=O)O)C(=O)NCC(=O)NCC(=O)N[C@@H](CO)C(=O)N[C@@H](CCCCNc1c(NCCCCCN(O)C(=O)CCC(=O)NCCCCCN(O)C(=O)CCC(=O)NCCCCCN(O)C(C)=O)c(=O)c1=O)C(=O)O)C(C)C` [zirconium-89 labelled] is reported as 0.31 %ID/g (rat, intestine; iv, 3 nmol/kg, 4 h, ex vivo).
With `COC(=O)C(=O)[C@H](C[C@@H]1CCNC1=O)NC(=O)[C@H](CCCCN)NC(=O)[C@H](Cc1ccccc1)NC(=O)OCc1ccccc1` the Ki was 0.113 nM and 0.101 nM and 0.136 nM (hip1, N-terminally truncated (Mycobacterium tuberculosis, UniProt P9WHR3); inhibitor).
With `O=C(C1CCCCC1)N1CCN(S(=O)(=O)c2cccc3cnccc23)CC1` the IC50 was less than 1000 nM (Cytochrome P450 3A4 (CYP3A4, Homo sapiens, UniProt P08684); enzyme activity, inhibitor; human liver microsomes; with: testosterone).
With `O=C(NC1(C(=O)O)CCCC1)c1ccc(-c2ccc(NC(=O)c3nc(-c4ccccc4)oc3C(F)(F)F)cc2)cc1` the Ki was 790 ± 46 nM (Polyribonucleotide nucleotidyltransferase (pnp, Mycobacterium tuberculosis, UniProt P9WI57)).
`CCCCCCCC[C@H]1O[C@H]1C/C=C/C=C/[C@H](O)CC(=O)NC1=C[C@](C)(CC)OC1=O` has an IC50 of less than 10 nM (Na(+)-translocating NADH-quinone reductase subunit B, complex with NqrE D168N (nqrB, Vibrio cholerae serotype O1, UniProt Q9KPS2); enzyme activity, inhibitor; NqrE-D168N mutant).
For `C[C@]12CC[C@@H](O)C[C@@H]1CC[C@@H]1[C@@H]2CC[C@]2(C)C(=O)CC[C@@H]12`, the IC50 was 27400 nM and > 20000 nM (ADRB2 (Homo sapiens, UniProt P07550); inhibitor; cells).
With `CSCC[C@H](NC(=O)[C@@H](N)Cc1ccc(O)cc1)C(=O)N[C@@H](Cc1ccccc1)C(=O)N[C@@H](CO)C(=O)N1CCC[C@H]1C(=O)N[C@H](C(=O)N[C@@H](Cc1c[nH]cn1)C(=O)N[C@@H](CCC(N)=O)C(=O)N[C@@H](Cc1ccccc1)C(=O)O)[C@@H](C)O` the IC50 was 1210 nM (HLA class I histocompatibility antigen, A alpha chain allele A*24:02; binding).
`Brc1ccc2c(c1)C(c1ccccn1)=NCc1c(-c3cnco3)ncn1-2` has a Ki of 150 ± 31.8 nM (GABA-A receptor benzodiazepine site, rat; radioligand binding; brain homogenate; with: [3H]flunitrazepam).

For quick reference, copied from above:
`COc1cc(Nc2ncc(F)c(Nc3ccc4c(n3)NC(=O)C(C)(C)O4)n2)cc(OC)c1OC` has an IC50 of greater than 10000 nM (ADRA2A (Homo sapiens, UniProt P08913)).
The tissue uptake of `CC[C@H](C)[C@H](NC(=O)[C@H](Cc1ccccc1)NC(=O)[C@H](CCC(=O)O)NC(=O)[C@H](CCCNC(=N)N)NC(=O)[C@H](C)NC(=O)[C@H](C)NC(=O)[C@H](CCC(N)=O)NC(=O)[C@H](CCC(=O)O)NC(=O)[C@H](CCC(=O)O)NC(=O)[C@H](CC(C)C)NC(=O)[C@H](Cc1ccc(O)cc1)NC(=O)[C@H](CO)NC(=O)[C@H](CO)NC(=O)[C@@H](NC(=O)[C@H](CC(=O)O)NC(=O)[C@H](CO)NC(=O)[C@@H](NC(=O)[C@H](Cc1ccccc1)NC(=O)[C@@H](NC(=O)CNC(=O)[C@H](CCC(=O)O)NC(=O)[C@H](C)NC(=O)CCc1c[nH]cn1)[C@@H](C)O)[C@@H](C)O)C(C)C)C(=O)N[C@@H](C)C(=O)N[C@@H](Cc1c[nH]c2ccccc12)C(=O)N[C@@H](CC(C)C)C(=O)N[C@H](C(=O)N[C@@H](CCCNC(=N)N)C(=O)NCC(=O)N[C@@H](CCCNC(=N)N)C(=O)N[C@@H](CCCCNC(=O)COCCOCCNC(=O)COCCOCCNC(=O)CC[C@H](NC(=O)CCCCCCCCCCCCCCCCC(=O)O)C(=O)O)C(=O)NCC(=O)NCC(=O)N[C@@H](CO)C(=O)N[C@@H](CCCCNc1c(NCCCCCN(O)C(=O)CCC(=O)NCCCCCN(O)C(=O)CCC(=O)NCCCCCN(O)C(C)=O)c(=O)c1=O)C(=O)O)C(C)C` [zirconium-89 labelled] is reported as 0.31 %ID/g (rat, intestine; iv, 3 nmol/kg, 4 h, ex vivo).
With `COC(=O)C(=O)[C@H](C[C@@H]1CCNC1=O)NC(=O)[C@H](CCCCN)NC(=O)[C@H](Cc1ccccc1)NC(=O)OCc1ccccc1` the Ki was 0.113 nM and 0.101 nM and 0.136 nM (hip1, N-terminally truncated (Mycobacterium tuberculosis, UniProt P9WHR3); inhibitor).
